Published values gathered from unrelated publications.
Lines come from different studies, so protocols differ. Numbers after ± are the reported error.

Compound = N=C(N)NCCC[C@@H]1NC(=O)[C@H](CCCCNC(=O)CCOCCOCCOCCOCCNC(=O)CC[C@H](NC(=O)CCOCCOCCOCCOCCNC(=O)CN2CCN(CC(=O)O)CCN(CC(=O)O)CCN(CC(=O)O)CC2)C(=O)NCCOCCOCCOCCOCCC(=O)NCCCC[C@@H]2NC(=O)[C@@H](Cc3ccccc3)NC(=O)[C@H](CC(=O)O)NC(=O)CNC(=O)[C@H](CCCNC(=N)N)NC2=O)NC(=O)[C@@H](Cc2ccccc2)NC(=O)[C@H](CC(=O)O)NC(=O)CNC1=O [indium-111 labelled]; test system = octanol/water; quantity = log P; result = -4.2 ± 0.21
Compound = N=C(N)NCCC[C@@H]1NC(=O)[C@H](CCCCNC(=O)CNC(=O)CNC(=O)CNC(=O)CC[C@H](NC(=O)CNC(=O)CNC(=O)CNC(=O)CN2CCN(CC(=O)O)CCN(CC(=O)O)CCN(CC(=O)O)CC2)C(=O)NCC(=O)NCC(=O)NCC(=O)NCCCC[C@@H]2NC(=O)[C@@H](Cc3ccccc3)NC(=O)[C@H](CC(=O)O)NC(=O)CNC(=O)[C@H](CCCNC(=N)N)NC2=O)NC(=O)[C@@H](Cc2ccccc2)NC(=O)[C@H](CC(=O)O)NC(=O)CNC1=O [indium-111 labelled]; test system = female athymic nu/nu mice, liver; conditions = intravenous, 1 h; quantity = tissue uptake; result = 2.25 ± 0.04 %ID/g
Compound = CC(C)C[C@H](NC(=O)[C@H](Cc1ccc(O)cc1)NC(=O)[C@@H](CCCNC(=N)N)NC(=O)[C@@H](CO)NC(=O)[C@H](Cc1ccccc1)NC(=O)[C@H](CC1CCCCC1)NC(=O)[C@H](CC(=O)O)NC(=O)CN1CCCN2CCN(CCCN(CC(=O)O)CC2)CC1)C(=O)N[C@@H](Cc1c[nH]c2ccccc12)C(=O)N[C@@H](CO)C(=O)O [copper-64 labelled]; test system = female NMRI nude mice, intestine; conditions = 22 h p.i.; quantity = tissue uptake; result = 2.1 ± 0.4 %ID/g
Compound = CCCC[C@H](NC(=O)COCCOCCNC(=O)CN1CCN(CC(=O)O)CCN(CC(=O)O)CC1)C(=O)N[C@H]1CC(=O)NCCCC[C@@H](C(N)=O)NC(=O)[C@H](Cc2c[nH]c3ccccc23)NC(=O)[C@H](CCCNC(=N)N)NC(=O)[C@@H](Cc2ccccc2)NC(=O)[C@H](Cc2c[nH]cn2)NC1=O [copper-64 labelled]; test system = C57 mice, pancreas; conditions = intravenous, 0.37 MBq, 2 h; quantity = tissue uptake; result = 0.21 ± 0.13 %ID/g
Compound = CC(=O)N(O)CCCCCNC(=O)CCC(=O)N(O)CCCCCNC(=O)CCC(=O)N(O)CCCCCNC(=S)Nc1ccc(NC(=S)NCCC(=O)N[C@H](CC(=O)O)C(=O)N[C@H](CC(=O)O)C(=O)NCCC(=O)N[C@H](CC(=O)O)C(=O)N[C@H](CC(=O)O)C(=O)NCCC(=O)N[C@H](CC(=O)O)C(=O)N[C@H](CC(=O)O)C(=O)NCCC(=O)N[C@H](CC(=O)O)C(=O)N[C@H](CC(=O)O)C(N)=O)cc1 [zirconium-89 labelled]; assay = PET/CT; test system = BALB/cJ mice; conditions = intravenous, dose not given; quantity = time to urinary excretion; result = ≤ 1 h
Compound = N=C(N)NCCC[C@@H]1NC(=O)[C@H](CCCCNC(=O)CC[C@H](NC(=O)CC[C@H](NC(=O)CN2CCN(CC(=O)O)CCN(CC(=O)O)CCN(CC(=O)O)CC2)C(=O)N[C@@H](CCC(=O)NCCCC[C@@H]2NC(=O)[C@@H](Cc3ccccc3)NC(=O)[C@H](CC(=O)O)NC(=O)CNC(=O)[C@H](CCCNC(=N)N)NC2=O)C(=O)NCCCC[C@@H]2NC(=O)[C@@H](Cc3ccccc3)NC(=O)[C@H](CC(=O)O)NC(=O)CNC(=O)[C@H](CCCNC(=N)N)NC2=O)C(=O)NCCCC[C@@H]2NC(=O)[C@@H](Cc3ccccc3)NC(=O)[C@H](CC(=O)O)NC(=O)CNC(=O)[C@H](CCCNC(=N)N)NC2=O)NC(=O)[C@@H](Cc2ccccc2)NC(=O)[C@H](CC(=O)O)NC(=O)CNC1=O [indium-111 labelled]; test system = female athymic nu/nu mice, eyes; conditions = intravenous, 0.5 h; quantity = tissue uptake; result = 1.56 ± 0.15 %ID/g
Compound = CCCC[C@H](NC(=O)CNC(=O)CNC(=O)CN1CCN(CC(=O)O)CCN(CC(=O)O)CCN(CC(=O)O)CC1)C(=O)N[C@H]1CC(=O)NCCCC[C@@H](C(N)=O)NC(=O)[C@H](Cc2c[nH]c3ccccc23)NC(=O)[C@H](CCCNC(=N)N)NC(=O)[C@@H](Cc2ccccc2)NC(=O)[C@H](Cc2c[nH]cn2)NC1=O [lutetium-177 labelled]; test system = C57 mouse, female, liver; conditions = intravenous, 0.037 MBq, 4 h; quantity = tissue uptake; result = 0.78 ± 0.08 %ID/g
Compound = C/C=C(/C)C(=O)O[C@H]1C(C)=C2[C@H]([C@@H]1OC(=O)CCCCCCC)[C@@](C)(OC(C)=O)C[C@H](OC(=O)CCCCCCCCCCCNC(=O)C[C@H](N)C(=O)N[C@@H](CCC(=O)N[C@@H](CCC(=O)N[C@@H](CCC(=O)N[C@@H](CCC(=O)O)C(=O)O)C(=O)O)C(=O)O)C(=O)O)[C@@]1(O)[C@H]2OC(=O)[C@@]1(C)O; test system = patients, plasma; conditions = intravenous infusion, 1 h, days 1 to 3, geometric mean; quantity = terminal half-life; result = 21 h

For quick reference, copied from above:
Compound = CCCC[C@H](NC(=O)CNC(=O)CNC(=O)CN1CCN(CC(=O)O)CCN(CC(=O)O)CCN(CC(=O)O)CC1)C(=O)N[C@H]1CC(=O)NCCCC[C@@H](C(N)=O)NC(=O)[C@H](Cc2c[nH]c3ccccc23)NC(=O)[C@H](CCCNC(=N)N)NC(=O)[C@@H](Cc2ccccc2)NC(=O)[C@H](Cc2c[nH]cn2)NC1=O [lutetium-177 labelled]; test system = C57 mouse, female, liver; conditions = intravenous, 0.037 MBq, 4 h; quantity = tissue uptake; result = 0.78 ± 0.08 %ID/g
